Assay results of several laboratories.
Numbered parts are unrelated; each lists some results of a single study.

Study 1 — method: RNA Bind-n-Seq; form: RNA; sample: in vitro; concentration: 365 nM; relative to: no-protein control; reading: higher = stronger binding
Target: RNA binding protein fox-1 homolog 2, RRM domain, GST-SBP tag (RBFOX2, Homo sapiens, UniProt O43251-10, residues 100-194)
Setting: natural RNA segment, single round, ends assumed
All sequences stand within: GGGAGUUCUACAGUCCGACGAUC … UGGAAUUCUCGGGUGCCAA
Residues (chain): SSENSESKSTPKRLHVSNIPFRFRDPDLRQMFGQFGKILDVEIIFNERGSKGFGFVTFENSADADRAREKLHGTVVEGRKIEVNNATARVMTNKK
Sequence	RBNS enrichment (R)
CCAACCCCAACAGACCCGUAGGGGGAGAAAAGGGAGGAAAAAAGUAAUUUUAAGGGGCCAAAGCUUUCCCUGAAGCAACCAAAGAUAUAUCCAAGUGCUUCCUCCAAGUC	0.249
ACACCCAUGGUUCAAAGUCUGGUGUUGACCCUAGAUAGCUAUGUGACUGUGGGUGGACCAUCUCCCCUCUCCGAGCUGUAGACAAAGGAGCUUAGACGCCACAUCAGGGU	0.525
GAUACCACAAGUAAAAACUUUAGUUAGUUCAUCUACAAAAGUAUUCAAAAGAAUACAUAGACUGGACACGAAGCUCAAAGGUAGAGUUCGCCUAGCAUGCAUACGAAGCC	15.9
AAUUCUCUUGCAAGUUAUGAAAAUAAAGUAUAUAAAAGGAUCCUGUGCUAUUGUGUGCGUGGUUGCUGAGACAAAAACUGGGACAAAGCAACUUACAGAGGGUAUUUUAG	1.37
GUGGUACCCAAUGCCAGAAUGUAAGAGUUGCAAGUGAUUUUGUGCUGCUAUUCAUUAAAACUUGUAUUCCAGUCUUGCCAGCUUAAGGAGAUCAAGAUAUUAAGAGGUAU	0.926
UGAUUUUAUCAAAACUUCUAAAAUUUAAAUUACGUGGUAAAAGAUCUGUAAAAGGCUGCAUAAAUGUUAGUUGGCACAUAAAGACAAUUGUAGAAGUUGAAAAAUGAUUG	0.813
ACUGUUUCUUUGUUACUCGUUGGUACAGCUGUUUGUUUUACUUGCACAUUUGUACAUAUACUUAAUGUUUUCAAGUGCCUUAAUUGUUUAAAAUCUCUGGCUUCAAAGUU	0.396
UUCUCUCUGGUGACUUUUUGCUUUUGUGAUAUGGCAGCGGUGUGACAGUCCCAGGAGAGAAGUCAUUAAGGGGGAACAUUGCAAGCUAUCUUUUCGUGUUCUCAGUGUAU	0.99
GGCAAAUAAGACCCCACCCCUCCCUGCAGCUUCACAGGGACGCUUCCUUCCCUCCCCGCAACCACCCCAGGCUCCCCUGGGAGGCUGCAGUUGUGGUACACGUCCCCGGU	0.518
UGGCUUGUUUUUGGAAAGAAAUUCUGAAGAGAGUGGAGGAGAGGAGAAAUGUCCUCAUAUUUGAGGACCAUGAAACAUUGUAGGUAUAUAUGGGGCUUUAGCAAGUUUGA	0.835
GACCAGCCCUGCAGCCCCCACUCAGCCGGCAGCCAGAUGGCCCCGCAAGGCCUCCAGGGAUGGCCCCUAGCCACAGGCCCUGGCUGAGGUCUCUGGGUCGGUCAGUGACA	0.377
CAGAGCGAGGAACAAGCCAUUAGGACCUGACCGUUGUAAAUACAGCCGCCCGCCCGCCGGUCCCCAGCCGGGCUCCGUUGGGUUUCCCAUUGUAAAUACUGCCUCGCCCC	0.276

Study 2 — method: RNAcompete; form: RNA; sample: in vitro; concentration: 20 nM; setting: 7-mer, probes averaged, single round; relative to: mean of 7-mers; reading: higher = stronger binding
Target: PABPC1L2, full length, GST fusion (mouse, UniProt A0ABA7IW68)
Residues (chain): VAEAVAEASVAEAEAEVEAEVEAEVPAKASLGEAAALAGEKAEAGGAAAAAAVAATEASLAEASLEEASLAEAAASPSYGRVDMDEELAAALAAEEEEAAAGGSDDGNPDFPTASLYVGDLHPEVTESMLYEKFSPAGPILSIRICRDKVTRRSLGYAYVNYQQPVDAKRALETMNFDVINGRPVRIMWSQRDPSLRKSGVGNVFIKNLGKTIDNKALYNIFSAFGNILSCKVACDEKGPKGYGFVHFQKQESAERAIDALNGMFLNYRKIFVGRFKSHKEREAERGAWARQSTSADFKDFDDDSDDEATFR
Sequence	7-mer Z-score
UAAAUGA	0.62
UGGCAAC	0.425
UGACCUU	-0.313
CGACGCC	-0.269
AGUAGGC	0.0134
CUCAGGC	-0.217
AGGAGUC	-0.258
CCAUCCG	-0.427
GCCUGAU	-0.117
AGCCGUC	-0.374
ACUCCUC	-0.374
AGCUUGC	-0.186
AUUAGCU	-0.193
GCACUAC	-0.228
UUCCCGG	-0.393
GUUGGAU	-0.0881
AAUAAUU	0.374
GGAUAAG	0.128
UUAAGAA	0.233
UCGUGUA	-0.079
AUUGAGA	0.204
UGUCUCA	-0.206
UACUCGG	-0.0989
GCAUAUA	0.00254
CUAGGCG	-0.0645

Study 3 — method: protein binding microarray; form: double-stranded DNA, one strand shown; sample: in vitro; concentration: not given; relative to: not given; reading: higher = stronger binding
Target: Histone acetyltransferase KAT6A, winged helix 1, GST fusion (KAT6A, Homo sapiens, UniProt Q92794, residues 1-85)
Setting: 8-mer, flanks averaged, mean of 2 arrays, mostly near background
Construct (chain): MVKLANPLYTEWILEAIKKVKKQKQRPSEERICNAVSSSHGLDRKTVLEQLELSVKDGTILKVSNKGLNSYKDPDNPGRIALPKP
Sequence	E-score
ATTTAGTA	0.0281
GAAGCTTA	-0.0632
ACTCTAAG	0.0111
CAGCGCTA	0.276
CACGAATA	-0.192
TGAGTGAA	-0.216
GTAGGTGA	-0.13
ACGGTATG	0.119
AACGTGTA	-0.166
GAACCACC	-0.109
AGACAATG	-0.153
GACTCAGC	-0.0194
TCCAACCA	-0.179
AAAACTTA	-0.263
ACCTGGGG	-0.133
AACCCAAG	-0.215
ATATTTGG	-0.271
AGTCTAAA	-0.234
CTCGGGTA	-0.015
CGTTTGGC	0.0914
CTACTAAG	0.177
GATCGTGC	0.0477
AGAGGTAC	-0.0966
AGGTTCAC	-0.0187
CAAACAGG	-0.19

Study 4 — method: aptamer microarray, sandwich; form: DNA with 2'F-ANA; sample: in vitro; concentration: 200 nM; added: Cy3 exosite-II aptamer, 400 nM; reading: higher = stronger binding; sequence: GGTTGGTGTGGTTGG
Target: Prothrombin, mature alpha-thrombin (F2, Homo sapiens, UniProt P00734)
Setting: whole 15-mer aptamer, many near background
Modification	mean fluorescence intensity [a.u.]
2'F-ANA at 3 4 5 6 13	64.8
2'F-ANA at 4 9 10 11 12 13 14	62.1
2'F-ANA at 2 5 6 7 10 11 13	54.8
2'F-ANA at 3 6 8 10 12 13 15	514
2'F-ANA at 3 5 7 10 13 14 15	133
2'F-ANA at 2 4 5 8 10 11 12 14 15	48.1
2'F-ANA at 1 5 9 11 13 14 15	47.3
2'F-ANA at 2 3 4 9 10 12 13 15	266
2'F-ANA at 2 6 8 9 10 11 13 15	94.5
2'F-ANA at 2 5 6 7 8 11 12 13 14	54.1
2'F-ANA at 2 3 4 5 6 7 9 10 13 14	124
2'F-ANA at 4 5 6 10 14 15	48.3
2'F-ANA at 1 3 5 7 9 11 12 13 15	74.7
2'F-ANA at 1 8 13 14	106
2'F-ANA at 1 4 5 10 11 13 15	50.5
2'F-ANA at 1 3 4 5 7 9 11 12 15	127
2'F-ANA at 1 2 3 6 7 8	266
2'F-ANA at 1 5 6 8 10 12 14	50
2'F-ANA at 5 8 10 12 14	41.2
2'F-ANA at 1 4 5 6 9 10 11 14	46.1
2'F-ANA at 3 4 5 7 8 10 14	51.4
2'F-ANA at 1 3 6 12 13 14 15	123
2'F-ANA at 2 3 5 8 9 11 15	84.4
2'F-ANA at 2 3 6 9 10 11 12 13 15	326
2'F-ANA at 1 2 3 4 5 6 8 9 10	51.1

Study 5 — method: universal PBM; form: double-stranded DNA, one strand shown; sample: in vitro; concentration: not given; reading: higher = stronger binding
Target: Sal-like protein 4, full length isoform B (SALL4, Homo sapiens, UniProt Q9UJQ4-2, residues 1-616)
Setting: 8-mer, flanks averaged, mean of replicates
Target sequence (chain): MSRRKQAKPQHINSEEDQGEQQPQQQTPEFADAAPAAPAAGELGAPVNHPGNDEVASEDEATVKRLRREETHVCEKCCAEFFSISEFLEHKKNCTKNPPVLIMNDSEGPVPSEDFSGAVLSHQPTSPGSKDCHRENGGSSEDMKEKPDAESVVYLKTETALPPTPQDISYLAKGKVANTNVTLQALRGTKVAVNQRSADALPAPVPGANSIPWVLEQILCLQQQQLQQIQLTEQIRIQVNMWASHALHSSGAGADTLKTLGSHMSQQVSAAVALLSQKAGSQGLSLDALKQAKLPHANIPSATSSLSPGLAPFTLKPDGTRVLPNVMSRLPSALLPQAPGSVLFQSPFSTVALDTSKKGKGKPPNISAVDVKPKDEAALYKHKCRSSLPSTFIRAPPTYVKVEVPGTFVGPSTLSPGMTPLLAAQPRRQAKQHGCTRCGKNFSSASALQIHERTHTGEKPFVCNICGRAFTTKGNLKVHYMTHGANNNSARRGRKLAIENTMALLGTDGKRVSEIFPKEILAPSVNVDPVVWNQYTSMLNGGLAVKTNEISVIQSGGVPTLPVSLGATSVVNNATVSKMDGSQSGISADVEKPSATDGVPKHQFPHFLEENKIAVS
Sequence	E-score
CTTTTTCA	0.208
GCACATAC	-0.0185
CGCATCTC	-0.0234
CACGCTCG	-0.239
ACAGTCGC	-0.186
GAAGTAGA	0.00785
AAACAATG	0.228
GGATCAAA	0.109
GCGAACCC	-0.217
ACATGTCC	-0.014
GTACGGTA	0.0249
CGCACATA	-0.0877
AATAATTG	0.409
ATAAGGTG	0.172
CCCTTGTA	0.0876
ATCTGTAC	0.201
ACGCAACA	0.0996
AAGTCGAG	-0.132

For quick reference, copied from above (study 3):
Sequence	E-score
AGTCTAAA	-0.234
CTCGGGTA	-0.015
CGTTTGGC	0.0914
CTACTAAG	0.177
GATCGTGC	0.0477
AGAGGTAC	-0.0966
AGGTTCAC	-0.0187
CAAACAGG	-0.19
